Assay results gathered from unrelated publications.
Every numbered part comes from another study and shows a few of its results, in no order. Several values in a cell are separate wells, animals, samples, runs or records.
Chain of UniProt Q14289 (whole entry, looked up): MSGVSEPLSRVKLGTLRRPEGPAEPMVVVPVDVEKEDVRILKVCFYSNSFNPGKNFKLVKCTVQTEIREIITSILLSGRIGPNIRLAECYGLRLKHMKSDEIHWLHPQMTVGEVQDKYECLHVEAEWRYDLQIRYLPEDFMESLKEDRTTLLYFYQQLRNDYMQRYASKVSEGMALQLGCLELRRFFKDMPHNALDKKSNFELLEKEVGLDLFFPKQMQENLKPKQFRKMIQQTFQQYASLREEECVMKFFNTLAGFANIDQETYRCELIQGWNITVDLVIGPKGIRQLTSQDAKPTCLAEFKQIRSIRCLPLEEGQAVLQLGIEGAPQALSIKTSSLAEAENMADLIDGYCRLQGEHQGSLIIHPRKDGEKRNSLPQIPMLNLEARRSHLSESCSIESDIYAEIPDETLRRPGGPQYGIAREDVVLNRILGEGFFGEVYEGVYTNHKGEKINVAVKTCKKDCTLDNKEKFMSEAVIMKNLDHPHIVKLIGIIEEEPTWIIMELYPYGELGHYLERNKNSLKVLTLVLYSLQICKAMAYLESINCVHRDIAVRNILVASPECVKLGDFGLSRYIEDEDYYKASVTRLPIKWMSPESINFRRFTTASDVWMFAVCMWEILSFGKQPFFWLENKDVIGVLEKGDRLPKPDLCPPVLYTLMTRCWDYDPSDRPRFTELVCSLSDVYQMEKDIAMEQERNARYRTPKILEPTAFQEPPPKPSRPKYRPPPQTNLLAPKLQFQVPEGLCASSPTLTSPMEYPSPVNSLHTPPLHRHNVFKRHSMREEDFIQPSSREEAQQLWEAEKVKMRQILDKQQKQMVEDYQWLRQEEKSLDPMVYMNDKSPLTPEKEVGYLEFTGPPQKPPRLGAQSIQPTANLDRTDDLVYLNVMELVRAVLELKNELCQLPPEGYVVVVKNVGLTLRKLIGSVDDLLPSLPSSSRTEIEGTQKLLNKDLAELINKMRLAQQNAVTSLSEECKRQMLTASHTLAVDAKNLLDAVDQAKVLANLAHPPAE
Chain of UniProt P23458 (whole entry, looked up): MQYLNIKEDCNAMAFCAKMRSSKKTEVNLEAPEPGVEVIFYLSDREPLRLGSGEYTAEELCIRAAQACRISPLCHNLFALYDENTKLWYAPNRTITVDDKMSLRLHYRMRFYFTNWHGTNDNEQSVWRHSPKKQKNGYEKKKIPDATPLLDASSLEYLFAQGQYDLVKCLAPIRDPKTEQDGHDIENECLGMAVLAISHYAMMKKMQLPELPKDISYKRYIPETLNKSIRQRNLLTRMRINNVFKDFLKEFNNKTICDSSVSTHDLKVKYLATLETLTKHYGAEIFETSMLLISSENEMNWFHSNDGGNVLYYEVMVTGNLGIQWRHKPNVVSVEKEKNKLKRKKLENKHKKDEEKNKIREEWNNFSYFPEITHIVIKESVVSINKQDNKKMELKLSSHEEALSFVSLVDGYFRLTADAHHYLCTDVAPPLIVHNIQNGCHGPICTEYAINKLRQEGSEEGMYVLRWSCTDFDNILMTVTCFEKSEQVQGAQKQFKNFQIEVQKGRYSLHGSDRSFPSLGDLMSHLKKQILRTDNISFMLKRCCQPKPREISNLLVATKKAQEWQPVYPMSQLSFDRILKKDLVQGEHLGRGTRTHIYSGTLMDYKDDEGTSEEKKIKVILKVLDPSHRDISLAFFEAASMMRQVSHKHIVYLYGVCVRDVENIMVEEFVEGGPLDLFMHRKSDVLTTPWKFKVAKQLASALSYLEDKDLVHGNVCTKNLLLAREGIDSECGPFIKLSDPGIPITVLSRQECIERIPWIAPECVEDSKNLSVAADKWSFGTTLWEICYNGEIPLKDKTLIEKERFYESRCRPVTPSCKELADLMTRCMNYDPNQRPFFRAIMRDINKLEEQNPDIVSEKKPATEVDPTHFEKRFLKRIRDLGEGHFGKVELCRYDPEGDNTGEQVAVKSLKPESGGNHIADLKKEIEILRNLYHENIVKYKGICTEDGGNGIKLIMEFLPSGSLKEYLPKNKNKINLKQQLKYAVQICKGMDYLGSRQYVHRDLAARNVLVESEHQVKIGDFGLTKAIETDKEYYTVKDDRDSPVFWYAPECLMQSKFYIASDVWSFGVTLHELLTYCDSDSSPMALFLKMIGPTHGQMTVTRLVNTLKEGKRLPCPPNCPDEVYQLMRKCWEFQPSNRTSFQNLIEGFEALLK
Chain of UniProt Q99755 (whole entry, looked up): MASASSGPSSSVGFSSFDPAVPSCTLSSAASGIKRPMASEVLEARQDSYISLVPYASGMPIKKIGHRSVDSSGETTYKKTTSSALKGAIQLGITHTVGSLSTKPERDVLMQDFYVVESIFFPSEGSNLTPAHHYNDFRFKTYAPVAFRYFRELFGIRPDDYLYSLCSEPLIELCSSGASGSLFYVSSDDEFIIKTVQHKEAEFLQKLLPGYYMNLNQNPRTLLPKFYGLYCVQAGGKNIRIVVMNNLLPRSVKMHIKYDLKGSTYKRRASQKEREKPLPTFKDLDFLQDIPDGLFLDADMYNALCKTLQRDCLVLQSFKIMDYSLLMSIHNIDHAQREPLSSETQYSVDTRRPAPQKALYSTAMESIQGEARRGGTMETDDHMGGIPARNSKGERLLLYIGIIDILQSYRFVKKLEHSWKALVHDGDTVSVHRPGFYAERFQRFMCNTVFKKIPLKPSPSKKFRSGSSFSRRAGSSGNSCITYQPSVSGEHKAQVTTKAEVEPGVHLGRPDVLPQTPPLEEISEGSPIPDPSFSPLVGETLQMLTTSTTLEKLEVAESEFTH
Chain of UniProt Q9HCP0 (whole entry, looked up): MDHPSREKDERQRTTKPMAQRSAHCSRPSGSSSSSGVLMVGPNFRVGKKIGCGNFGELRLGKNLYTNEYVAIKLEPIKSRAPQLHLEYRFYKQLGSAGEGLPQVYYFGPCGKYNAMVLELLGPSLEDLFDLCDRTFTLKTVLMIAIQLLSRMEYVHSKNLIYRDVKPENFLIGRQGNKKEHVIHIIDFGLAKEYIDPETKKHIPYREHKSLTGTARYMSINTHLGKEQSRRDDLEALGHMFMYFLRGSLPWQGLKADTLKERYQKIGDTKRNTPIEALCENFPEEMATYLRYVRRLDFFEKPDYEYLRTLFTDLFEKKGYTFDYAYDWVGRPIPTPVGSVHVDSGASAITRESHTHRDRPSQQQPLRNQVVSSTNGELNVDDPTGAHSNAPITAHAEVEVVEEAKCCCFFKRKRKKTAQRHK
Chain of UniProt Q8IVW4 (whole entry, looked up): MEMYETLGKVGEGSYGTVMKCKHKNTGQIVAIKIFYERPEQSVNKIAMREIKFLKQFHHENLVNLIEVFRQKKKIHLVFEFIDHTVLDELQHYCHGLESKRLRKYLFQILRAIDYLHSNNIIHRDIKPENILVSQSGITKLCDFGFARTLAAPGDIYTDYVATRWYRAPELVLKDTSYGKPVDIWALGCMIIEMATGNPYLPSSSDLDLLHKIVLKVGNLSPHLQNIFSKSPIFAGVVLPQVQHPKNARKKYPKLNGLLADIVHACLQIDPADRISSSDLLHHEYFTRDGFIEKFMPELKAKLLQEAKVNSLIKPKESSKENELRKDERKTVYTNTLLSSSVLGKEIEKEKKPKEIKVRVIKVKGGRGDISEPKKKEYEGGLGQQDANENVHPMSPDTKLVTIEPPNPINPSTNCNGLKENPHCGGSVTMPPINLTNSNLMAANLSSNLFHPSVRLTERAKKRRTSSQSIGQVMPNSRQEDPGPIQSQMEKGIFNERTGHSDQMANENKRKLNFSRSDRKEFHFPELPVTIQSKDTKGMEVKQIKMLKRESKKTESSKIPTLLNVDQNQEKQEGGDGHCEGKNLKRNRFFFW
Chain of UniProt O43318 (whole entry, looked up): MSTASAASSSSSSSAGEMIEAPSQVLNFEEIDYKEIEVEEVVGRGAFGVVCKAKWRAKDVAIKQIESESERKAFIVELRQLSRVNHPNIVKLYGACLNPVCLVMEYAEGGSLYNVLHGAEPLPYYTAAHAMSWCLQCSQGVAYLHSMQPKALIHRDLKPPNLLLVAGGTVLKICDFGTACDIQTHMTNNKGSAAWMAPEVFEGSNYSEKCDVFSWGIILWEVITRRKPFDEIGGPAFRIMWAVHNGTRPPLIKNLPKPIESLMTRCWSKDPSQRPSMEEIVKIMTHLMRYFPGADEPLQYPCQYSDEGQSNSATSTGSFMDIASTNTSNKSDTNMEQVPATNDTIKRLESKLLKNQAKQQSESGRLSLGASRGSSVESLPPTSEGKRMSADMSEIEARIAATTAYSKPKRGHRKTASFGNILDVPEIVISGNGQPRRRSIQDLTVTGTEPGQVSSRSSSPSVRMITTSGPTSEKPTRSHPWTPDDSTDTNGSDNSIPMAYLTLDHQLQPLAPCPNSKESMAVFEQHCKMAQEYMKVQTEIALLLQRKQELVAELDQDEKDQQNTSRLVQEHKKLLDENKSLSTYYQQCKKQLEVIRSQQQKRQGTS
Chain of UniProt Q00535 (whole entry, looked up): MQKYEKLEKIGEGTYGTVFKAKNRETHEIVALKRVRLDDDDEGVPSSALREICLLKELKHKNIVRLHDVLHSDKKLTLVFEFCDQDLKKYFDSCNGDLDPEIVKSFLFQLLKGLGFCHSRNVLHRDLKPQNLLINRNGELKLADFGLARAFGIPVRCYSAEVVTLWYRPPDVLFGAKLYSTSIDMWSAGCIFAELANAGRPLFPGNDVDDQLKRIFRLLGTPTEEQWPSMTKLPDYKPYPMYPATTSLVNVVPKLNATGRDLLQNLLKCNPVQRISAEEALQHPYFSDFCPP

Block 1
Cell line: A-375
Concentration: 100 µM
Time: 36 h
Endpoint: viability
Cc1ccc(Sc2ccccc2N2CCNCC2)c(C)c1: 1.71% and -0.803%
Cc1cc2nc3c(=O)[nH]c(=O)nc-3n(C[C@H](O)[C@H](O)[C@H](O)COP(=O)(O)O)c2cc1C: 224%
c1cnc2cc3c(cc2n1)[C@@H]1CNC[C@H]3C1: 90.7%
O=C(O)CCC(=O)c1ccc(-c2ccccc2)cc1: 114%
CN1CCc2nc(C(=O)N[C@@H]3C[C@@H](C(=O)N(C)C)CC[C@@H]3NC(=O)C(=O)Nc3ccc(Cl)cn3)sc2C1: 109% and 106%
C[C@]12CC[C@@H]3c4ccc(O)cc4C[C@@H](CCCCCCCCC[S+]([O-])CCCC(F)(F)C(F)(F)F)[C@H]3[C@@H]1CC[C@@H]2O (stereo partly drawn): 91.1%
NC[C@H]1O[C@H](O[C@H]2[C@H](O)[C@@H](O[C@H]3O[C@H](CO)[C@@H](O)[C@H](N)[C@H]3O)[C@H](N)C[C@@H]2N)[C@H](N)C[C@@H]1O: 121%
OCc1ccc(O[C@@H]2O[C@H](CO)[C@@H](O)[C@H](O)[C@H]2O)cc1: 121%
Cc1c(-c2ccc(O)cc2)n(Cc2ccc(OCCN3CCCCCC3)cc2)c2ccc(O)cc12: 2.28%
Nc1nc(=O)[nH]cc1F: 114%
Cc1ccc(/C(=C\CN2CCCC2)c2ccccn2)cc1: 75.3%
CC(C)(C)NC[C@H](O)COc1nsnc1N1CCOCC1: 91.7%
O=c1ccc2ccccc2o1: 105%

Block 2
Target: Casein kinase I isoform delta (CSNK1D, Homo sapiens, UniProt P48730)
Chain of UniProt P48730 (whole entry, looked up): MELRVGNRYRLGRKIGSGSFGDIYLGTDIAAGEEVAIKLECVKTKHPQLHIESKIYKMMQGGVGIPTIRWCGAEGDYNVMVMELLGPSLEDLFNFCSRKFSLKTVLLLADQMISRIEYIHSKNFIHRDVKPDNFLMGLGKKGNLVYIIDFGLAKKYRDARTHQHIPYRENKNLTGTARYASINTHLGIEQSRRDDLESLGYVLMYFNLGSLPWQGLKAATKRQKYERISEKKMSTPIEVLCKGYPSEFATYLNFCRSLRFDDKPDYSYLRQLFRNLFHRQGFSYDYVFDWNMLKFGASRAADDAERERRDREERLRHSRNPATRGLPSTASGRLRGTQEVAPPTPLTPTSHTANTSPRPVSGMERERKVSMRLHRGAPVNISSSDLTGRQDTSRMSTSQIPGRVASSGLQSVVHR
Read-out: enzyme activity
Action: inhibitor
Concentration: 0.5 µM
Reference: control
Endpoint: remaining activity
Cc1cn(-c2cc(NC(=O)c3ccc(C)c(Nc4nccc(-c5cccnc5)n4)c3)cc(C(F)(F)F)c2)cn1: 89.3%
Cc1cc2ncc(-c3ccccc3)nc2cc1C: 90.7%
O=C1c2ccccc2-c2n[nH]c3cccc1c23: 13.1%
Cn1nc2c3c(cccc31)C(=O)c1ccccc1-2: 20.8%
CCN(CC)CCNC(=O)c1c(C)[nH]c(/C=C2\C(=O)Nc3ccc(F)cc32)c1C: 31.8%
c1ccc(-c2cnc(Nc3ccc(OCCN4CCCC4)cc3)s2)cc1: 95.8%
Nc1cccc(-c2cc3c(Oc4cccc(O)c4)ncnc3[nH]2)c1: 96.8%
CN([C@@H](Cc1ccc(OS(=O)(=O)c2cccc3cnccc23)cc1)C(=O)N1CCN(c2ccccc2)CC1)S(=O)(=O)c1cccc2cnccc12: 109%
CCOc1nc(NC(=O)Cc2cc(OC)ccc2OC)cc(N)c1C#N: 103%
COc1cc2ncnc(Nc3cccc(Cl)c3)c2cc1OC: 100%
O=C(NC(NC(=S)Nc1ccc(F)c([N+](=O)[O-])c1)C(Cl)(Cl)Cl)C(c1ccccc1)c1ccccc1 (stereo not drawn): 105%
CCN(CC)C(=O)c1ccc(Nc2nc(OCC3CCCCC3)c3[nH]cnc3n2)cc1: 102%
O=C1C(Cl)=C(N2C(=O)CCC2=O)C(=O)c2ccccc21: 99.4%
CCN(CC)CCNC(=O)c1c(C)[nH]c(/C=C2\C(=O)Nc3ccc(Cl)cc32)c1C: 49.7%
COc1cc2c(cc1OC)-c1[nH]nc(Nc3cccc(F)c3)c1C2: 99.9%
Cc1nc2cc3nc(-c4cccs4)cnc3cc2n1C: 95.9%
N#Cc1c(NC(=O)c2cccc3ccccc23)sc2c1CCCC2: 106%
O=c1cc(-c2cccc3c2Sc2ccccc2S3)oc(N2CCOCC2)c1: 106%
COc1cc2ncnc(Nc3ccc(O)c(Br)c3)c2cc1OC: 89.7%
O=C(Nc1cccc(Nc2nccc(Nc3cccc(C(F)(F)F)c3)n2)c1)C1CC1: 111%
c1ccc(-c2[nH]ncc2-c2ccnc3ccccc23)nc1: 44.2%
Ic1cccc(CSc2nnc(-c3ccncc3)o2)c1: 103%
N#C/C(=C\c1ccc(O)c(O)c1)C(=O)NCc1ccccc1: 98.3%

Block 3
Target: Diamine acetyltransferase 1 (Homo sapiens, UniProt P21673)
Action: inhibitor
Concentration: 10 µM
Reference: control
Endpoint: remaining activity
Residues (P21673 1-171): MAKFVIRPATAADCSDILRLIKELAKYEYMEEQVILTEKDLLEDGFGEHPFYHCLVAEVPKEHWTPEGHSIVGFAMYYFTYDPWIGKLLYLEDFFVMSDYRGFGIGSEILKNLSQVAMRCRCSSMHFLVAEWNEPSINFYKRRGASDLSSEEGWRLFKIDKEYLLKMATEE
O=C1c2cccc(O)c2C(=O)c2c(O)cccc21: 103%
COc1cc(/C=C/c2ccc(O)c(O)c2)cc(OC)c1: 107%
CC1=C(/C=C/C(C)=C/C=C/C(C)=C/CO)C(C)(C)CCC1: 102%
NC(CO)C(=O)O (racemic): 96.3%
CC(C)(O)[C@@H]1CC[C@](C)([C@H]2[C@@H](O)C[C@@]3(C)[C@@H]4C[C@H](O[C@@H]5O[C@H](CO)[C@@H](O)[C@H](O)[C@H]5O)[C@H]5C(C)(C)[C@@H](O[C@@H]6OC[C@@H](O)[C@H](O)[C@H]6O)CC[C@@]56C[C@@]46CC[C@]23C)O1: 87.9%
O=C1C[C@@H](c2ccc(O)cc2)Oc2cc(O)ccc21: 91.7%
C/C=C(/C)C(=O)O: 102%
CCCCCCCCCCCCCCCO: 87.7%

Block 4
Compound: CN1CCN(c2cnc3c(C4CCN(C(=O)c5ccc(OC(F)(F)F)cc5N)CC4)ncnc3c2)CC1
Technique: competition with immobilised ligand
Concentration: 1 µM
Endpoint: remaining binding
Cyclin-dependent kinase-like 3 (CDKL3, Homo sapiens, UniProt Q8IVW4); binding: 92%
Tyrosine-protein kinase JAK1, JH2 (JAK1, Homo sapiens, UniProt P23458); cell-free assay: 90%
Tyrosine-protein kinase Mer (MERTK, Homo sapiens, UniProt Q12866); cell-free assay: 75%
Phosphatidylinositol 4,5-bisphosphate 3-kinase catalytic subunit beta isoform (PIK3CB, Homo sapiens, UniProt P42338); cell-free assay: 100%
Angiopoietin-1 receptor (TEK, Homo sapiens, UniProt Q02763); cell-free assay: 74%
Cyclin-dependent kinase 5 (CDK5, Homo sapiens, UniProt Q00535); cell-free assay: 87%
Receptor-type tyrosine-protein kinase FLT3 (FLT3, Homo sapiens, UniProt P36888, R834Q); cell-free assay: 100%
Protein-tyrosine kinase 2-beta (PTK2B, Homo sapiens, UniProt Q14289); cell-free assay: 100%
Beta-adrenergic receptor kinase 1 (GRK2, Homo sapiens, UniProt P25098); cell-free assay: 100%
Mitogen-activated protein kinase kinase kinase kinase 3 (MAP4K3, Homo sapiens, UniProt Q8IVH8); cell-free assay: 100%
Proto-oncogene tyrosine-protein kinase receptor Ret (RET, Homo sapiens, UniProt P07949, V804M); cell-free assay: 100%
Phosphatidylinositol 4-phosphate 5-kinase type-1 alpha (PIP5K1A, Homo sapiens, UniProt Q99755); cell-free assay: 64%
Mitogen-activated protein kinase 6 (MAPK6, Homo sapiens, UniProt Q16659); cell-free assay: 100%
Phosphatidylinositol 4,5-bisphosphate 3-kinase catalytic subunit alpha isoform (PIK3CA, Homo sapiens, UniProt P42336, E545K); cell-free assay: 100%
Phosphatidylinositol 4-kinase beta (PI4KB, Homo sapiens, UniProt Q9UBF8); cell-free assay: 96%
Mitogen-activated protein kinase kinase kinase 7 (MAP3K7, Homo sapiens, UniProt O43318); cell-free assay: 100%
Serine/threonine-protein kinase Sgk1 (SGK1, Homo sapiens, UniProt O00141); cell-free assay: 100%
Casein kinase I isoform gamma-1 (CSNK1G1, Homo sapiens, UniProt Q9HCP0); cell-free assay: 100%
cAMP-dependent protein kinase catalytic subunit alpha (PRKACA, Homo sapiens, UniProt P17612); cell-free assay: 100%

Some of these lines once more (block 1):
Cc1ccc(Sc2ccccc2N2CCNCC2)c(C)c1: 1.71% and -0.803%
Cc1cc2nc3c(=O)[nH]c(=O)nc-3n(C[C@H](O)[C@H](O)[C@H](O)COP(=O)(O)O)c2cc1C: 224%
c1cnc2cc3c(cc2n1)[C@@H]1CNC[C@H]3C1: 90.7%
O=C(O)CCC(=O)c1ccc(-c2ccccc2)cc1: 114%
CN1CCc2nc(C(=O)N[C@@H]3C[C@@H](C(=O)N(C)C)CC[C@@H]3NC(=O)C(=O)Nc3ccc(Cl)cn3)sc2C1: 109% and 106%
C[C@]12CC[C@@H]3c4ccc(O)cc4C[C@@H](CCCCCCCCC[S+]([O-])CCCC(F)(F)C(F)(F)F)[C@H]3[C@@H]1CC[C@@H]2O (stereo partly drawn): 91.1%
NC[C@H]1O[C@H](O[C@H]2[C@H](O)[C@@H](O[C@H]3O[C@H](CO)[C@@H](O)[C@H](N)[C@H]3O)[C@H](N)C[C@@H]2N)[C@H](N)C[C@@H]1O: 121%
OCc1ccc(O[C@@H]2O[C@H](CO)[C@@H](O)[C@H](O)[C@H]2O)cc1: 121%
Cc1c(-c2ccc(O)cc2)n(Cc2ccc(OCCN3CCCCCC3)cc2)c2ccc(O)cc12: 2.28%
Nc1nc(=O)[nH]cc1F: 114%
